Assay results pooled from the literature.
Every numbered part comes from another study and shows a few of its results, in no order. Positions count from the first letter of the parent shown.

Series 1
Target: Centromere-binding protein 1, full length, N-terminal tag (CBF1, Saccharomyces cerevisiae, UniProt P17106, residues 1-351)
Sequence of UniProt P17106 (whole entry, looked up): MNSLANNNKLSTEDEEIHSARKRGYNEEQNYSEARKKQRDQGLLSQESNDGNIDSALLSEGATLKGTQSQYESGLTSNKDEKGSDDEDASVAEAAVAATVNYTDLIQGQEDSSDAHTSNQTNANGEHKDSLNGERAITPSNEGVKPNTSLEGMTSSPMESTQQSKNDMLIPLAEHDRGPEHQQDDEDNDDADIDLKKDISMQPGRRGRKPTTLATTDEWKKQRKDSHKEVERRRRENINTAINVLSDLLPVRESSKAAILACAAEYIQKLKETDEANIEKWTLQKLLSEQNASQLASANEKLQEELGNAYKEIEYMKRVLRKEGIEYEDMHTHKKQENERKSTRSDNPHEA
Technique: protein-binding microarray
Form: double-stranded DNA, one strand shown
Medium: in vitro
Concentration: 0.8 µM
Notes: whole 60-bp probe, no competitor
Reading: higher = stronger binding
All sequences stand within: … GTCTTGATTCGCTTGACGCTGCTG
Oligonucleotide | fluorescence intensity
GAATCGCCTGAGTGTTACGTGAGATTACATATATAG | 521 a.u.
GAATATCTTAGATTTTACGTGATATGTTGGATATAG | 559 a.u.
GAAAGGACATGGATTCATCACGTACAATGATCATAG | 595 a.u.
TGTACGAAGCTATACCATGTGATTATAGTAGTTAGG | 2120 a.u.
CTAAGAGAGAGCAAGCGGGTGAGTATTCGTTTCTTC | 485 a.u.
GAATAATAGGAAAACCACCACCGGCAGTTACAATAG | 501 a.u.
TGTACGAAGCTATACGTGCGGGCTATAGTAGTTAGG | 522 a.u.
CTAAACTATAAATCACATGTGCTGTCAAGAGATTTC | 2310 a.u.
TGTACGAAGCTATTAAGCACGCATATAGTAGTTAGG | 523 a.u.
GAAAAATGTATGCAGCACATGTTTTTTAGAGTGTAG | 728 a.u.

Series 2
Target: CCNA2, cyclin fold, Cln2 fusion (human)
Technique: yeast growth competition, sequencing
Medium: yeast
Notes: weak parent motif
Baseline: not given
Reading: higher = stronger binding
Starting sequence: MASTL docking peptide (human); PMIAKNLMCELDE
Variant | normalised enrichment score
A4C | -0.304
L11N | -0.355
K5T | -0.453
M2G | 0.235

Series 3
Target: ABI1, truncated, D143A, DHFR fusion (Arabidopsis thaliana)
Technique: DHFR PCA, deep sequencing
Medium: yeast
Notes: methotrexate growth selection, single substitutions
Added: (+)-ABA 200 µM
Baseline: wild-type fitted maximum
Reading: higher = stronger binding
Starting sequence: PYL1, truncated, DHFR fusion (Arabidopsis thaliana); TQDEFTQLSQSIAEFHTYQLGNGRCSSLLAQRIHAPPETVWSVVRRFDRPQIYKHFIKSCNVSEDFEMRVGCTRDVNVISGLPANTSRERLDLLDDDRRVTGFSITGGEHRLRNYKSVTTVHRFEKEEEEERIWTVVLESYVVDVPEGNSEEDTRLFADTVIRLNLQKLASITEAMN; partner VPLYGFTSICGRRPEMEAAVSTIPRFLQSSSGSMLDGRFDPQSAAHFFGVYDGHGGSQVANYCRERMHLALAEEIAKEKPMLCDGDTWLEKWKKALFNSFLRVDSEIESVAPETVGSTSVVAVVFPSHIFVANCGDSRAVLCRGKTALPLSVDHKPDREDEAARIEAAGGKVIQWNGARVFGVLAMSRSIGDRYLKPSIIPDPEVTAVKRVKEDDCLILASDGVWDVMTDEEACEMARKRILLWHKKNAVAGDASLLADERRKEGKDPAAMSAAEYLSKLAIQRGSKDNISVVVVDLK
Variant | relative binding score [%]
V142R | 85.5
Y53A | 48.9
A175M | 95.9
I79W | 103
K54S | 5.29

Further values, each from its own experiment
Substance | target | test | test system | conditions | how to read | endpoint | value
PhoQ, residues 284 288 289 292 302 303 TVTVVA | PhoP, residues 12 14 15 18 19 LYFRQ (Escherichia coli, UniProt P23836) | Sort-seq, measured: YFP reporter | E. coli | PhoQ-PhoP variant library, added: 10 µM Mg2+ | baseline: high Mg2+ state, higher = stronger signaling | fold induction | 9.14
